Published values pooled from the literature.
± marks the error that the study gave.

| SMILES | cell line | assay | setting | how to read | inhibition [%] |
| --- | --- | --- | --- | --- | --- |
| O=C(Cc1ccc(F)cc1)Nc1nc2ccccc2n1Cc1ccc(Cl)cc1 | MDA-MB-231-HRE-Luc | HIF reporter gene, inhibitor, HRE luciferase reporter | 10 µM, hypoxia | reference: untreated | > 50 |
| COc1ccc(/C=C2/S/C(=N/N=C(\C)c3ccccn3)NC2=O)cc1OC | HepG2 | cell growth or viability, SRB | 100 µg/mL, 48 h |  | 60.2 |
| CC(C)OCc1ccc(C=O)o1 | human sickle red blood cells | sickling | 2 mM, 2 h, 37 °C, hematocrit 20%, 4% oxygen |  | 22.5 ± 8.8 |
| O=C(Cc1ccc(Cl)cc1)Nc1nc2ccccc2n1Cc1ccc(Br)cc1 | MDA-MB-231-HRE-Luc | HIF reporter gene, inhibitor, HRE luciferase reporter | 10 µM, hypoxia | reference: untreated | > 50 |
| C/C(=N\N=c1/[nH]c(C)cs1)c1ccccn1 | HepG2 | cell growth or viability, SRB | 100 µg/mL, 48 h |  | 72 |
| COC(=O)C[C@H](NC(=O)[C@H](C)NC(=O)[C@@H](NC(=O)OCc1ccccc1)C(C)C)C(=O)CF | glioblastoma cells | caspase-3/7 activation, CellEvent fluorescence | 100 µM, added: MED2 |  | 65 |
| O=C1CCC(=O)C2(CCCCC2)N1 | human erythrocytes | hypotonicity-induced hemolysis | 800 µg/mL, 1 h |  | 78.2 |
| C#CCOc1ccc(/C=C/C(=O)N2CCC(Cc3ccccc3)CC2)cc1OC | BV-2 | NO release, inhibitor, Griess | 5 µM, LPS-stimulated |  | 32.8 |
| COc1ccc2c(c1)c(CC(=O)O)c(C)n2C(=O)c1ccc(Cl)cc1 | human erythrocytes | hypotonicity-induced hemolysis | 1000 µg/mL, 1 h |  | 98.9 |
| CCCCC[C@@H](O)[C@H]1C(=O)O[C@H](C)[C@@H](O)/C=C/C=C/C=C/C=C/C=C(\C)[C@@H](O)C[C@H](O)C[C@H](O)C[C@H](O)C[C@H](O)C[C@H](O)C[C@@H]1O | MCEC mouse | transfection reporter gene | 1.0 µg/mL, 1 h | reference: vehicle | 88.4 |
| O=C1NC2(CCCCC2)c2nc3c(c(-c4ccccc4)c21)CCCC3 | human erythrocytes | hypotonicity-induced hemolysis | 600 µg/mL, 1 h |  | 86.4 |
| CCN1C(=O)/C(=C\c2ccc(OC)c(OC)c2)S/C1=N/N=C(\C)c1ccccn1 | HepG2 | cell growth or viability, SRB | 100 µg/mL, 48 h |  | 69.8 |
| Cc1cc(-c2ccccc2)c2c(n1)C1(CCCCC1)NC2=O | human erythrocytes | hypotonicity-induced hemolysis | 100 µg/mL, 1 h |  | 69.2 |
| COCc1ccc(C=O)o1 | human sickle red blood cells | sickling | 2 mM, 2 h, 37 °C, hematocrit 20%, 4% oxygen |  | 35.3 ± 6.1 |
| C[C@@H](Oc1cc(-c2cnn(C3CCNCC3)c2)cnc1N)c1c(Cl)ccc(F)c1Cl | KARPAS-299 | cell growth or viability, MTT | 20 µg/mL |  | 96.9 |
| COC(=O)c1cc(OC)c2c(c1-c1c(CO)cc(OC)c3c1OCO3)OCO2 | WB-F344 rat liver | hepatocyte damage | 10 µM, added: D-galactosamine |  | 66 |
| NC1=NC(=S)NC12CCCCC2 | human erythrocytes | hypotonicity-induced hemolysis | 200 µg/mL, 1 h |  | 89.9 |
| O=C(Cc1ccc(Cl)cc1)Nc1nc2ccccc2n1Cc1ccc(Cl)cc1 | MDA-MB-231-HRE-Luc | HIF reporter gene, inhibitor, HRE luciferase reporter | 10 µM, hypoxia | reference: untreated | > 50 |
| COc1ccc(/C=C/C(=O)N2CCc3ccccc3C2)cc1OC | BV-2 | NO release, inhibitor, Griess | 5 µM, LPS-stimulated |  | 41.2 |
| O=C1NC2(CCCCC2)c2[nH]c(=S)nc(-c3ccccc3)c21 | human erythrocytes | hypotonicity-induced hemolysis | 400 µg/mL, 1 h |  | 78.8 |

Some of these lines once more:
| SMILES | cell line | assay | setting | how to read | inhibition [%] |
| --- | --- | --- | --- | --- | --- |
| O=C1CCC(=O)C2(CCCCC2)N1 | human erythrocytes | hypotonicity-induced hemolysis | 800 µg/mL, 1 h |  | 78.2 |
| COc1ccc2c(c1)c(CC(=O)O)c(C)n2C(=O)c1ccc(Cl)cc1 | human erythrocytes | hypotonicity-induced hemolysis | 1000 µg/mL, 1 h |  | 98.9 |
